Literature values, collected from citations in different studies.
Protocols differ between the studies behind these lines. ± marks the error that the study gave.
Sequence of UniProt P41595 (whole entry, looked up): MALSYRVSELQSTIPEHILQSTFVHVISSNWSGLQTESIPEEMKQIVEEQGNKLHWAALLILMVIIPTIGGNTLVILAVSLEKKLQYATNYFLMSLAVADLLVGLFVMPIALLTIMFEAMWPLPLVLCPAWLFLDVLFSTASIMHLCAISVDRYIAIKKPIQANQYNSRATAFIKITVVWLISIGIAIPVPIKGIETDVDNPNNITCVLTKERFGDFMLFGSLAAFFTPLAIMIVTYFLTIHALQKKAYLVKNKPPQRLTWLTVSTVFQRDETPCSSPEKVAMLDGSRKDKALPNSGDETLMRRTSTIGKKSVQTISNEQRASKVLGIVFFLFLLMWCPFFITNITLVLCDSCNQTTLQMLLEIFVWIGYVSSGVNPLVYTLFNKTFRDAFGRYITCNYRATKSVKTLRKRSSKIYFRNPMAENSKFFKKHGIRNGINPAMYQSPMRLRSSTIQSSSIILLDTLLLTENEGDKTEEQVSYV

| SMILES | target or system | test | system | conditions | scale | quantity | value |
| --- | --- | --- | --- | --- | --- | --- | --- |
| COC(=O)CCOC(=O)c1cncn1[C@H](C)c1ccccc1 |  |  | rat blood |  |  | metabolic half-life | 24.6 s |
| OCCN1CCN(CCC=C2c3ccccc3Sc3ccc(C(F)(F)F)cc32)CC1 | MCF7 | microarray, refers to: TMEM41B mRNA |  | concentration not given | baseline: DMSO | log2 fold change | 1.18 |
| C[C@H](CCCC(C)(C)O)[C@H]1CC[C@H]2[C@@H]3CC=C4C[C@@H](O)CC[C@]4(C)[C@H]3CC[C@]12C | ORP1 | binding |  |  |  | Kd | 3900 nM |
| CCCC(C(=O)c1ccc2c(c1)OCO2)N1CCCC1.Cl (racemic) |  |  | male Sprague-Dawley rat, plasma | subcutaneous, 1 mg/kg |  | plasma concentration | ~250 ng/mL |
| COc1cc(C[C@@H](C)N)c(OC)cc1I | HTR2B (Homo sapiens, UniProt P41595) |  |  |  |  | Ki | 18 nM |
| Cc1cc(Nc2ncc(Cl)c(Nc3ccccc3S(=O)(=O)C(C)C)n2)c(OC(C)C)cc1C1CCNCC1 |  |  | cancer patients | oral, daily, fasted, single agent |  | MTD | 750 mg |
| C[C@H](c1ccccc1)n1cncc1C(=O)OCCC(=O)O |  |  | rat | MOC-etomidate infusion, end of 30 min infusion |  | blood concentration | 1170 ± 48 µM |
| CCOC(=O)[C@@H]1CSCC(=O)N[C@H](CC)C(=O)N(C)[C@@H](C)C(=O)N[C@@H](CC(C)C)C(=O)N(C)[C@H](C)C(=O)N(CC(C)C)CC(=O)N[C@H](CC(C)C)C(=O)N(C)[C@H](C)C(=O)N[C@@H](CC(C)C)C(=O)N1C | MDCK |  |  |  |  | log permeability (Pe) | -5.04 |

Repeated from above:
| SMILES | target or system | test | system | conditions | scale | quantity | value |
| --- | --- | --- | --- | --- | --- | --- | --- |
| CCOC(=O)[C@@H]1CSCC(=O)N[C@H](CC)C(=O)N(C)[C@@H](C)C(=O)N[C@@H](CC(C)C)C(=O)N(C)[C@H](C)C(=O)N(CC(C)C)CC(=O)N[C@H](CC(C)C)C(=O)N(C)[C@H](C)C(=O)N[C@@H](CC(C)C)C(=O)N1C | MDCK |  |  |  |  | log permeability (Pe) | -5.04 |
